Assay results of several laboratories.
Values joined by “and” are separate records of one study, mostly repeats; a detail may differ. ± gives the spread as reported.
AKR1B1: Aldo-keto reductase family 1 member B1 (AKR1B1, Homo sapiens, UniProt P15121)
Kir3.1/Kir3.4: Kir3.1/Kir3.4 (Homo sapiens, UniProt P48544+P48549)
Sequence of UniProt P48544 (whole entry, looked up): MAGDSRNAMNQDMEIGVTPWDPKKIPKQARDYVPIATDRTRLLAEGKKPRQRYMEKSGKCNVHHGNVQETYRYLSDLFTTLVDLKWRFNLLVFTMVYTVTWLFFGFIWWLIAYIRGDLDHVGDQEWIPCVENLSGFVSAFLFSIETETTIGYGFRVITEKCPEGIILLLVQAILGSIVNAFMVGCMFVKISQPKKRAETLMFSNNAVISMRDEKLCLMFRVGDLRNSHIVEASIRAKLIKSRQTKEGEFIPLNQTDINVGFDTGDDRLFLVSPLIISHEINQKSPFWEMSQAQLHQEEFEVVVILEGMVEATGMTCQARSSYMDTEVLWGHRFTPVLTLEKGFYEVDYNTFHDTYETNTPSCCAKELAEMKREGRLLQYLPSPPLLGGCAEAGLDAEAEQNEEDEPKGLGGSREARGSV
Sequence of UniProt P48549 (whole entry, looked up): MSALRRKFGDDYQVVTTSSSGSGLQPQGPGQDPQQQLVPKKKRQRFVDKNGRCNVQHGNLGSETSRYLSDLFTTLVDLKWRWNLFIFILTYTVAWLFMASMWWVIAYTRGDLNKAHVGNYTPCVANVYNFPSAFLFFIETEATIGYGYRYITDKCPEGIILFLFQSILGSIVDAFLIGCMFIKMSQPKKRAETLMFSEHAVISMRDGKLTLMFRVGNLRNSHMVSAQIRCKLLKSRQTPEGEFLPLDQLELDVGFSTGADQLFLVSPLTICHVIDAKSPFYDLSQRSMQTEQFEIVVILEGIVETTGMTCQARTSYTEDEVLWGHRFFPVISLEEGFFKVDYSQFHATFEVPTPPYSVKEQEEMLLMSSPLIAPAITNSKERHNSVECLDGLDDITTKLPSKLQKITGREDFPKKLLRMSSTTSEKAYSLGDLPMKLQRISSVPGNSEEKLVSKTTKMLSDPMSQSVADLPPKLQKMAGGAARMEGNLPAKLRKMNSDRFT
T1: riboswitch RNA yjdF aptamer domain (Bacillus subtilis); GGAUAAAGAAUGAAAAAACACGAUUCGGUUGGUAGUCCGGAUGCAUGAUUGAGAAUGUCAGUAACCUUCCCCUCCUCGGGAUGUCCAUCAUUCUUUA
Sequence of UniProt P52790 (whole entry, unmodified, looked up): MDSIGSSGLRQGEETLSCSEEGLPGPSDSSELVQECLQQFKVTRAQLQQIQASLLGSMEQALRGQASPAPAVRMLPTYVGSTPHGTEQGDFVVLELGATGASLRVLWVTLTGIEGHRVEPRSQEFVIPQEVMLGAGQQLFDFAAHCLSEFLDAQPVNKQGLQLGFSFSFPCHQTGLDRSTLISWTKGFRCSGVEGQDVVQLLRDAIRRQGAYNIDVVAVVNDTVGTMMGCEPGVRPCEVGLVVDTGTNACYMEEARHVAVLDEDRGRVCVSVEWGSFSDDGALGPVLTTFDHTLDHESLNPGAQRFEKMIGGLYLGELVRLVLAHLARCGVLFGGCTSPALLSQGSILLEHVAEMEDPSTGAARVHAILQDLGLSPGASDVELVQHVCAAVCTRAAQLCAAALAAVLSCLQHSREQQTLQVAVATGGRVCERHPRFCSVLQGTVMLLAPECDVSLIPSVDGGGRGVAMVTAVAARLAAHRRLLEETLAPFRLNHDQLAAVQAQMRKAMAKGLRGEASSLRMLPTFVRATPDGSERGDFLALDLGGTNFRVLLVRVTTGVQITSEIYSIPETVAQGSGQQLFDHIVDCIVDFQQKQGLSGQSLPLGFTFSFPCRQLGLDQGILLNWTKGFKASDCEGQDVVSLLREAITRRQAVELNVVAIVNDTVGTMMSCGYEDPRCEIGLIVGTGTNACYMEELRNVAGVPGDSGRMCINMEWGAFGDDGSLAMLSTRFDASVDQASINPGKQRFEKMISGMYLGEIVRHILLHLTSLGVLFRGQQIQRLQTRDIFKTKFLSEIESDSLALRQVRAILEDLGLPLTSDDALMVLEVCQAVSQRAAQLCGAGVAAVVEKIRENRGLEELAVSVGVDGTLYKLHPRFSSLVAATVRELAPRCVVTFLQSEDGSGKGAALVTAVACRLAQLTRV
Sequence of UniProt P14902 (whole entry, unmodified, looked up): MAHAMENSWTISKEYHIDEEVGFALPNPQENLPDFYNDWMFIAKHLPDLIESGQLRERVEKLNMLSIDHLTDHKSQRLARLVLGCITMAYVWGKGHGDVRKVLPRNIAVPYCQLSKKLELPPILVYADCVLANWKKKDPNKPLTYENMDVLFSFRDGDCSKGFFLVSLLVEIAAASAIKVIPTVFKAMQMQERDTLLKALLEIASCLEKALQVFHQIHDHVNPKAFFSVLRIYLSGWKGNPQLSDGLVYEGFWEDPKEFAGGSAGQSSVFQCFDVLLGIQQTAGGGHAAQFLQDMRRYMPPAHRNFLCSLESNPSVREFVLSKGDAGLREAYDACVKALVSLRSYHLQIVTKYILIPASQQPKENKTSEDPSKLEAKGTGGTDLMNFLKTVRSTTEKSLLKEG
Sequence of UniProt Q9UM07 (whole entry, looked up): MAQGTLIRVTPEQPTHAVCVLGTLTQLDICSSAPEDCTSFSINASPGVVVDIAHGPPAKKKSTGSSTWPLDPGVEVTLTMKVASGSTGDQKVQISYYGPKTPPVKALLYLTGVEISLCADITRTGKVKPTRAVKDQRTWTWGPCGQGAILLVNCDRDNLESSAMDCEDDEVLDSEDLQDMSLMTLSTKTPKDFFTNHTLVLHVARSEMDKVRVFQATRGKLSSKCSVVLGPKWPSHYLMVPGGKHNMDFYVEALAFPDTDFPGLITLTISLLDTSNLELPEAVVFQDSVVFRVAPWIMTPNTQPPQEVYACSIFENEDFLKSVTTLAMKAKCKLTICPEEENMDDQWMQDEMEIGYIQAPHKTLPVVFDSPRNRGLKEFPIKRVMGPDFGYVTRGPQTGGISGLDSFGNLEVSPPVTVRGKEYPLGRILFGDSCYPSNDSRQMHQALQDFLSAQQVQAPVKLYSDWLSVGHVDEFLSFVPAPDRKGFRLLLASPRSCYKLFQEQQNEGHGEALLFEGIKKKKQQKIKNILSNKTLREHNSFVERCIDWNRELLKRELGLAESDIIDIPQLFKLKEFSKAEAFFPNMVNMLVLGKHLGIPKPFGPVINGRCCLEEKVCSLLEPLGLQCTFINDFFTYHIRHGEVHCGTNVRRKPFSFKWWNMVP
Sequence of UniProt Q99640 (whole entry, looked up): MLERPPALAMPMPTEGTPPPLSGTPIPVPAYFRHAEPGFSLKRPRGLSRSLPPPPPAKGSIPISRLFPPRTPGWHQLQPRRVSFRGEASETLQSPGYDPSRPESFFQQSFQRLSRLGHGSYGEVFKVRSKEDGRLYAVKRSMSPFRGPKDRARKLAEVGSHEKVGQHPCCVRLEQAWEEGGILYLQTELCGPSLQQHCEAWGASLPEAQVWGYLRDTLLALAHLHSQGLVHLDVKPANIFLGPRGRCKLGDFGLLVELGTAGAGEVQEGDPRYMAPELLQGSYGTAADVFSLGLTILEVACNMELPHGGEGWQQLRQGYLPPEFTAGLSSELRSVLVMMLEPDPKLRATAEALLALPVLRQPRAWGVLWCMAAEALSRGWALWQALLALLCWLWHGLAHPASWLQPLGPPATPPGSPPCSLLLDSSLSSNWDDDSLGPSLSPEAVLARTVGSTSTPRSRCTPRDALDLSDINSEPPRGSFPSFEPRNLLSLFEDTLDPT
Sequence of UniProt P32298 (whole entry, looked up): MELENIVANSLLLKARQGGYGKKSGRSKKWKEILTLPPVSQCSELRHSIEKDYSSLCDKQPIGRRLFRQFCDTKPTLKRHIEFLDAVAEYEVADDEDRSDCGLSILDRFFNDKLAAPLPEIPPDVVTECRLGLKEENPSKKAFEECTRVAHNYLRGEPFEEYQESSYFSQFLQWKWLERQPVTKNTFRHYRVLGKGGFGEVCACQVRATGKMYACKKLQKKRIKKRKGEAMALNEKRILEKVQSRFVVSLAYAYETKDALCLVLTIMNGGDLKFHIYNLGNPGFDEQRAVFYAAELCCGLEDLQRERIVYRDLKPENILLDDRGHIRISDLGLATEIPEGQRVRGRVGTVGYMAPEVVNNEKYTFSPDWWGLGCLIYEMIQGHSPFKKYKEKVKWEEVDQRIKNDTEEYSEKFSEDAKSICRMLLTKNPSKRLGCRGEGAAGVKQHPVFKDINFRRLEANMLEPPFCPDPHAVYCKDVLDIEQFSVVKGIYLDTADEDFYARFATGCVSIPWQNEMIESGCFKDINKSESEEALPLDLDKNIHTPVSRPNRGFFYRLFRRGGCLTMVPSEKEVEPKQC
Sequence of UniProt P43063 (whole entry, looked up): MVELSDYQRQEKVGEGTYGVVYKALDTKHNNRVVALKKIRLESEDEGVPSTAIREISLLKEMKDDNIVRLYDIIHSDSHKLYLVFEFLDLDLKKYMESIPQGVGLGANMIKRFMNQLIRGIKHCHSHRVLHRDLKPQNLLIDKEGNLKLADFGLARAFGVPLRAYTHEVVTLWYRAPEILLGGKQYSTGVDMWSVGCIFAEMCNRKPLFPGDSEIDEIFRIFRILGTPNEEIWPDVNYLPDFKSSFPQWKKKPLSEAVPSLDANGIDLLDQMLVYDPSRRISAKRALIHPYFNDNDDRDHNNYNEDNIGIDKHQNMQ
Sequence of UniProt Q6NT16 (whole entry, unmodified, looked up): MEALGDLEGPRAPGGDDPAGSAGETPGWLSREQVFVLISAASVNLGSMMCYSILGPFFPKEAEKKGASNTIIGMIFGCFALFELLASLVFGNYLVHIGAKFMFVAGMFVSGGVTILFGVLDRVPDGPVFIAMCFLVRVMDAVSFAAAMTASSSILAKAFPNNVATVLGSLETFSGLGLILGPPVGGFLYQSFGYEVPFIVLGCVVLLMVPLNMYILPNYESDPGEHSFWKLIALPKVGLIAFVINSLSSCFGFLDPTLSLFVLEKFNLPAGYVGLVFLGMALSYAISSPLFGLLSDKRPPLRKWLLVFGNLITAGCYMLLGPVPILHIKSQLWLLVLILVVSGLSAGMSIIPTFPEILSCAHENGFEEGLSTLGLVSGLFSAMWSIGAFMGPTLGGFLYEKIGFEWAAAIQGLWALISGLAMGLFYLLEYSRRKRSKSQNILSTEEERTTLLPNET
Sequence of UniProt Q16774 (whole entry, unmodified, looked up): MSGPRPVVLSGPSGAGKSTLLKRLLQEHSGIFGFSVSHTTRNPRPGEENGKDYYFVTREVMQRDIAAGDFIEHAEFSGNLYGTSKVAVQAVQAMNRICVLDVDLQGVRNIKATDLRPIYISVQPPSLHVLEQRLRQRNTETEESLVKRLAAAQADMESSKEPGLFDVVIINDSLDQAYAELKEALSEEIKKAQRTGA

`NC(N)=NCCC[C@H](N)C(=O)Nc1ccc2ccccc2c1` has a kcat of 6.88 s⁻¹ (rat aminopeptidase III; substrate; MW 110 kDa).
The inhibition of `CC1=NN(c2cc(Cl)ccc2Cl)C(=O)C1=NNc1ccc(S(N)(=O)=O)cc1` is reported as 33.3% (bovine α-glucosidase; enzyme activity, inhibitor, glucose oxidase; 100 µg/mL, together with: maltose).
The tissue uptake of `CC(C)C[C@H](NC(=O)C[C@H](O)[C@H](CC(C)C)NC(=O)[C@H](Cc1c[nH]cn1)NC(=O)CNC(=O)[C@@H](NC(=O)[C@H](C)NC(=O)[C@H](Cc1c[nH]c2ccccc12)NC(=O)[C@H](CCC(N)=O)NC(=O)[C@@H](Cc1ccccc1)NC(=O)COCCOCCNC(=O)CCC(C(=O)O)N1CCN(CC(=O)O)CCN(CC(=O)O)CCN(CC(=O)O)CC1)C(C)C)C(N)=O` (stereo partly shown) [lutetium-177 labelled] is reported as 0.39 ± 0.07 %ID/g (BALB/c nu/nu mice, female, PC-3 xenograft tumour; intravenous, 100 pmol, 90 h, together with: PA 300 µg).
`NCCCNCCCCNCCCN` has a Kd of 58.7 µM (MFS-type transporter SLC18B1 (SLC18B1, Homo sapiens, UniProt Q6NT16, R137A); binder).
`N#Cc1ccc2c(-c3ccncc3)c(-c3ccc(F)cc3)nn2c1`: “log2 fold change” -0.084 (Cyclin-dependent kinase 1 (CDC28, Candida albicans, UniProt P43063); kinase binding, competitor, MIB/MS competition, refers to: CDC28; Candida albicans cell lysate; 100 nM; reference: DMSO).
`[H]/N=C(/N)NCC(=O)O` — result for “normalised MST signal”: -0.00235 (Sodium- and chloride-dependent taurine transporter (SLC6A6, Homo sapiens, UniProt P31641, G62A); binding, microscale thermophoresis; 1 mM, room temperature, together with: 50 nM labelled protein; higher = more binding).
`CN1CCC(c2cc(-c3ccncc3)c(-c3ccc(F)cc3)[nH]2)CC1` has a parasite growth of 82.9% (Plasmodium falciparum; LDH colourimetric; 3D7 Hyp1-Nluc; 2 µM, 72 h; reference: DMSO).
For `NC(=O)c1ccc[n+]([C@@H]2O[C@H](COP(=O)([O-])OP(=O)(O)OC[C@H]3O[C@@H](n4cnc5c(NCCNC(=O)CCCCCNC(=O)CCCCCNC(=O)CCCC[C@@H]6SC[C@@H]7NC(=O)N[C@@H]76)ncnc54)[C@H](O)[C@@H]3O)[C@@H](O)[C@H]2O)c1`, the apparent Km was 18 µM (Protein mono-ADP-ribosyltransferase PARP11 (PARP11, Homo sapiens, UniProt Q9NR21); substrate, DELFIA auto-modification).
With `COc1cc(/C=C2\SC(=O)N(CC(=O)c3ccc([N+](=O)[O-])cc3)C2=O)cc(OC)c1OC` the log IC50 was 2.86 log nM (AKR1B1; enzyme activity, inhibitor).
`CN1C(=Cc2cc[n+](C)c3ccccc23)Sc2ccccc21` has a Kd of 0.00024 µM (T1, riboswitch RNA yjdF aptamer domain (Bacillus subtilis); fluorescence titration).
`OC[C@H]1OC(O)[C@H](O)[C@@H](O)[C@@H]1O` (stereo partly shown) has a kcat of 58 ± 10 s⁻¹ (Hexokinase-3 (HK3, Homo sapiens, UniProt P52790, R807A); substrate inhibition; mutant R807A, complete substrate inhibition model, together with: ATP 20 mM).
For `O=C(Nc1ccccc1OS(=O)(=O)c1cccs1)c1ccc2ncccc2c1`, the fluorescence increase was 83.1 ± 1.44% (P2X purinoceptor 4 (P2RX4, Homo sapiens, UniProt Q99571); calcium mobilization; MCF7 stably transfected; 100 µM, together with: ATP 100 µM).
For `Cc1c(-c2ccc(N3CCc4cccc(C(=O)Nc5nc6ccccc6s5)c4C3)nc2C(=O)O)cnn1CC12CC3(C)CC(C)(C1)CC(OCCNCC[C@H](O)CO)(C3)C2`, “mean arterial pressure change” read -13 mmHg (beagle dog, anaesthetised; intravenous infusion, 0.1 mg/kg/min, 150 min; reference: baseline).
Under “mean relaxed DNA”, `O=c1nc(SCc2cc(F)cc(C(F)(F)F)c2)nc(SCc2ccc3nc(Cl)ccc3c2)[nH]1` is recorded as 0% (DNA topoisomerase 2-alpha (TOP2A, Homo sapiens, UniProt P11388); DNA relaxation; 62.5 µM).
For `Oc1ccc(/C=C/c2cc(O)cc(O)c2)cc1`, “ΔH of binding” read -15.1 ± 0.044 kcal/mol (O-methyltransferase (Sorghum bicolor, UniProt A0A1B6PFV1); concentration not given, together with: MTA+).
`O=C1CC[C@@H](C(=O)Nc2ccc3ccccc3c2)N1`: hydrolysis “inactive” (rat aminopeptidase III; substrate; concentration not given, pH 7.0).
With `NS(=O)(=O)NCCNc1nonc1C(=NO)Nc1ccc(F)c(Br)c1` the ΔTi was 8.1 °C (Indoleamine 2,3-dioxygenase 1 (IDO1, Homo sapiens, UniProt P14902); thermal stability, nanoDSF; 50 µM, 2% DMSO, 2 mM DTT, together with: unlabelled protein).
`Nc1ncnc2c1ncn2[C@@H]1O[C@H](COP(=O)(O)CP(=O)(O)OP(=O)(O)O)[C@@H](O)[C@H]1O` gave a calcium influx of 0% (P2X purinoceptor 1 (P2RX1, Homo sapiens, UniProt P51575, K136W); calcium influx; 3.16 nM; reference: ionomycin response).
`O=C(COP(=O)(O)O)[C@@H](O)[C@H](O)[C@H](O)COP(=O)(O)O`: “thermal stability ratio” 0.727 and 0.769 and 0.25 (Transcription elongation regulator 1 (Homo sapiens, UniProt O14776); thermal proteome profiling, refers to: TCERG1; HepG2 cell lysate; concentration not given, 57 over 37 °C; reference: compound over control).
With `CCn1cc(-c2cc(Cn3ccnc3)cc3c2CCN([C@H](c2cc(OC)ccn2)C2CC2)C3=O)c(C(F)(F)F)n1` the EC50 was 175 nM (ZR-75-30; cell growth, inhibitor; 120 h).
`C=C1CN(S(=O)(=O)c2ccc(C)cc2)CCCN(Cc2ccccc2)CCCN(S(=O)(=O)c2ccc(C)cc2)C1` has an FLuc/RLuc ratio of 1.13 (Protein transport protein Sec61 subunit alpha isoform 1 (Homo sapiens, UniProt P61619); refers to: control signal peptide-FLuc reporter; HEK293; 0.12 mM, 6 h).
`CCc1oc2ccccc2c1C(=O)c1cc(Br)c(O)c(Br)c1` — result for “normalized urate uptake”: 0.729 and 0.738 and 0.767 (Solute carrier family 22 member 12 (SLC22A12, Homo sapiens, UniProt Q96S37); inhibitor; HEK-293T; 0.3 µM, 10 min, 37 °C, together with: [14C]urate 10 µM).
`CC(=O)N[C@H](C(=O)N1C[C@H](O)C[C@H]1C(=O)NCc1ccc(-c2scnc2C)cc1)C(C)(C)SCCCCCCNC(=O)C[C@@H]1N=C(c2ccc(Cl)cc2)c2c(sc(C)c2C)-n2c(C)nnc21` has a ΔpKd of 0.8 ± 0.2 (BRD2/VHL, BD1; with VCB (Homo sapiens, UniProt P25440+P40337, K107A/Q101K/V106E); ITC; 25 °C, unit not given, together with: BRD2 BD1; reference: ternary over binary).
`C=CC(=O)N1CCC(COCC(=O)N2CCN(c3nc(-c4cnc(N)nc4C(F)F)nc(N4CCOC[C@@H]4C)n3)CC2)CC1` gave a remaining binding of 94% (Non-receptor tyrosine-protein kinase TNK1 (TNK1, Homo sapiens, UniProt Q13470); KINOMEscan; 1 µM).
`CCCCC[C@H](O)/C=C/[C@H]1[C@H](O)CC(=O)[C@@H]1C/C=C\CCCC(=O)O` has an Emax of 102 ± 3.8% (Prostaglandin E2 receptor EP1 subtype (PTGER1, Homo sapiens, UniProt P34995, Y99A); IP1 accumulation, agonist; AD293; 1 h, EP1 Y99A mutant).
For `CNc1ncc2c(/C=C/C(=O)N3CCC(OC)CC3)nn(Cc3cccc(C(F)(F)F)c3)c2n1`, the remaining activity was 116% (G protein-coupled receptor kinase 4 (GRK4, Homo sapiens, UniProt P32298); kinase activity, inhibitor; 1 µM; reference: untreated control).
`O=C(Nc1cc(Cl)cc(Cl)c1)c1ccc2c(c1)C(=O)NC2=O` has a selectivity ratio of greater than 727 (Amine oxidase [flavin-containing] B (MAOB, Homo sapiens, UniProt P27338); reference: IC50 MAO-A over IC50 MAO-B).
`CNCCOC12CC3(C)CC(C)(CC(Cn4ncc(-c5ccc(N6CCc7cccc(C(=O)Nc8nc9ccccc9s8)c7C6)nc5C(=O)O)c4C)(C3)C1)C2` gave a plasma concentration of 3.3 ± 0.4 ng/mL (anaesthetised male beagle dogs; intravenous bolus, 0.03 mg/kg, 30 min).
`C=CC(=O)N1CCC(C(=O)NCC(=O)N2CCN(c3nc(-c4cnc(N)nc4C(F)F)nc(N4CCOCC4)n3)CC2)CC1` has a remaining binding of 92% (Membrane-associated tyrosine- and threonine-specific cdc2-inhibitory kinase (PKMYT1, Homo sapiens, UniProt Q99640); KINOMEscan; 1 µM).
`O=C1S/C(=C\c2ccc([N+](=O)[O-])cc2)C(=O)N1Cc1nc2ccccc2s1` gave a Hill slope of -0.595 (AKR1B1; enzyme activity, inhibitor).
For `Cc1nn(C2CCS(=O)(=O)C2)c(C)c1NC(=O)COc1cccc(Cl)c1Cl` (stereo not shown), activity read “inactive” (Kir3.1/Kir3.4; activator, thallium flux; HEK293; concentration not given).
`CC(C)C[C@H](N)C(=O)O` gave a binding stoichiometry of 0.79 ± 0.04 mol/mol LeuT (snf (Aquifex aeolicus, UniProt O67854, L400C); scintillation proximity; concentration not given, 400 nM protein).
`O=C(COc1cc(Cl)ccc1Cl)Nc1cc(C2CCC2)nn1C1CCOCC1` gave an Emax of 18% (Kir3.1/Kir3.4; thallium flux, activator; HEK293; reference: standard compound).
`CC[C@H](C)[C@H](NC(=O)[C@H](CCCCNC(=O)CN(CCNC(=O)CN(CCNC(=O)CN(CCNC(=O)CN(CCNC(=O)[C@H](CCCNC(=N)N)NC(C)=O)C(=O)Cn1ccc(N)nc1=O)C(=O)Cn1cnc2c(=O)[nH]c(N)nc21)C(=O)Cn1cnc2c(=O)[nH]c(N)nc21)C(=O)Cn1ccc(N)nc1=O)NC(=O)[C@H](C)NC(=O)[C@H](CCCNC(=N)N)NC(=O)[C@H](CCCCN)NC(=O)[C@H](CCC(N)=O)NC(=O)[C@H](CCC(N)=O)NC(=O)[C@H](CC(N)=O)NC(=O)[C@@H](NC(=O)[C@H](CC(C)C)NC(=O)[C@H](CC(N)=O)NC(=O)[C@@H]1CCCN1C(=O)[C@H](CC(=O)O)NC(=O)[C@H](CC(C)C)NC(=O)[C@H](C)NC(=O)[C@H](CS)NC(=O)[C@H](CCCC(=O)NCCN(CC(=O)NCCN(CC(=O)NCCN(CC(=O)NCCN(CC(N)=O)C(=O)Cn1cnc2c(=O)[nH]c(N)nc21)C(=O)Cn1ccc(N)nc1=O)C(=O)Cn1ccc(N)nc1=O)C(=O)Cn1cnc2c(=O)[nH]c(N)nc21)NC(=O)[C@H](Cc1c[nH]c2ccccc12)NC(=O)[C@H](Cc1ccc(O)cc1)NC(=O)[C@H](CCCNC(=N)N)NC(=O)[C@H](CC(N)=O)NC(=O)[C@H](CCCNC(=N)N)NC(=O)[C@H](CC1CCCCC1)NC(=O)[C@H](CCC(=O)O)NC(=O)[C@H](CCCCN)NC(C)=O)[C@@H](C)O)C(=O)N[C@@H](CCCNC(=N)N)C(=O)N[C@@H](CO)C(=O)N[C@H](C(=O)N[C@@H](Cc1ccc(O)cc1)C(=O)N[C@@H](CCC(=O)O)C(=O)N[C@@H](CCC(=O)O)C(=O)NCC(=O)N[C@@H](CCC(=O)O)C(N)=O)[C@@H](C)CC` gave an enrichment of 4.74 (Receptor tyrosine-protein kinase erbB-2 (ERBB2, Homo sapiens, UniProt P04626); binding, affinity selection mass spectrometry; 1 h, 4 °C, unit not given; reference: control-subtracted).
For `Cn1cc(-c2ccc(-c3cncc(Cl)c3N3CCC4(CCNC4=O)CC3)cc2)cn1`, “log2 fold change” read -3.32 (COLO 205; gene expression, microarray, refers to: SPIB mRNA; concentration not given, 2 h; reference: untreated cells).
`CCn1c(-c2nc3cc(C(=O)N4CCC[C@@H](N)C4)cc(OC)c3n2C)cc2cccnc21` gave a Ki' of 147 ± 49 µM (Protein-arginine deiminase type-4 (PADI4, Homo sapiens, UniProt Q9UM07); mixed inhibitor; together with: BAEE substrate, 10 mM CaCl2).
For `Nc1ncnc2c1ncn2[C@@H]1O[C@H](CO[P@](=O)(O)O[P@](=O)(O)O[P@@](=O)(O)S)[C@@H](O)[C@H]1O`, the -TΔS was 1.13 kcal/mol (GUK1 (Homo sapiens, UniProt Q16774, S18A); binding, ITC; together with: GMP).

Repeated from above:
`C=C1CN(S(=O)(=O)c2ccc(C)cc2)CCCN(Cc2ccccc2)CCCN(S(=O)(=O)c2ccc(C)cc2)C1` has an FLuc/RLuc ratio of 1.13 (Protein transport protein Sec61 subunit alpha isoform 1 (Homo sapiens, UniProt P61619); refers to: control signal peptide-FLuc reporter; HEK293; 0.12 mM, 6 h).
`CCc1oc2ccccc2c1C(=O)c1cc(Br)c(O)c(Br)c1` — result for “normalized urate uptake”: 0.729 and 0.738 and 0.767 (Solute carrier family 22 member 12 (SLC22A12, Homo sapiens, UniProt Q96S37); inhibitor; HEK-293T; 0.3 µM, 10 min, 37 °C, together with: [14C]urate 10 µM).
`CC(=O)N[C@H](C(=O)N1C[C@H](O)C[C@H]1C(=O)NCc1ccc(-c2scnc2C)cc1)C(C)(C)SCCCCCCNC(=O)C[C@@H]1N=C(c2ccc(Cl)cc2)c2c(sc(C)c2C)-n2c(C)nnc21` has a ΔpKd of 0.8 ± 0.2 (BRD2/VHL, BD1; with VCB (Homo sapiens, UniProt P25440+P40337, K107A/Q101K/V106E); ITC; 25 °C, unit not given, together with: BRD2 BD1; reference: ternary over binary).
